# Results collected from several papers.
# Compare with care: the assays were run in different laboratories.
# PRMT5: Protein arginine N-methyltransferase 5 (PRMT5, Homo sapiens, UniProt O14744)
# UniProt O14744, sequence (whole entry, looked up): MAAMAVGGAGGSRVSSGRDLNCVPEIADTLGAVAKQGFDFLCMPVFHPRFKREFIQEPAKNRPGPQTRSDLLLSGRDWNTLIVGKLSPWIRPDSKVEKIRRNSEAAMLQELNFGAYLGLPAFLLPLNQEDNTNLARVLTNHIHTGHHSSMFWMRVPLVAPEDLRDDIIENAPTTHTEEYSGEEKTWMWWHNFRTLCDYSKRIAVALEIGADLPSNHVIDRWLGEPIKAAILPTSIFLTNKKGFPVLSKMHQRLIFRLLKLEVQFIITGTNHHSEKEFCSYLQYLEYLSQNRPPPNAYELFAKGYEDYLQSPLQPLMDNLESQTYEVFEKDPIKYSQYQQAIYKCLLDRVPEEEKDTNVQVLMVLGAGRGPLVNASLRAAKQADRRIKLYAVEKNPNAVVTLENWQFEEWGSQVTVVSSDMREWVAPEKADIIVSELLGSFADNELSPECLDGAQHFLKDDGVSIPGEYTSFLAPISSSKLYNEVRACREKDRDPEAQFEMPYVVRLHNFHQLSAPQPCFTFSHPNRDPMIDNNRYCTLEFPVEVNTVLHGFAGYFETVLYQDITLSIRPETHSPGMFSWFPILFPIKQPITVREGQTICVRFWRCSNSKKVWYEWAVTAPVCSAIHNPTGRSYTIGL
# UniProt Q63531, sequence (whole entry, looked up): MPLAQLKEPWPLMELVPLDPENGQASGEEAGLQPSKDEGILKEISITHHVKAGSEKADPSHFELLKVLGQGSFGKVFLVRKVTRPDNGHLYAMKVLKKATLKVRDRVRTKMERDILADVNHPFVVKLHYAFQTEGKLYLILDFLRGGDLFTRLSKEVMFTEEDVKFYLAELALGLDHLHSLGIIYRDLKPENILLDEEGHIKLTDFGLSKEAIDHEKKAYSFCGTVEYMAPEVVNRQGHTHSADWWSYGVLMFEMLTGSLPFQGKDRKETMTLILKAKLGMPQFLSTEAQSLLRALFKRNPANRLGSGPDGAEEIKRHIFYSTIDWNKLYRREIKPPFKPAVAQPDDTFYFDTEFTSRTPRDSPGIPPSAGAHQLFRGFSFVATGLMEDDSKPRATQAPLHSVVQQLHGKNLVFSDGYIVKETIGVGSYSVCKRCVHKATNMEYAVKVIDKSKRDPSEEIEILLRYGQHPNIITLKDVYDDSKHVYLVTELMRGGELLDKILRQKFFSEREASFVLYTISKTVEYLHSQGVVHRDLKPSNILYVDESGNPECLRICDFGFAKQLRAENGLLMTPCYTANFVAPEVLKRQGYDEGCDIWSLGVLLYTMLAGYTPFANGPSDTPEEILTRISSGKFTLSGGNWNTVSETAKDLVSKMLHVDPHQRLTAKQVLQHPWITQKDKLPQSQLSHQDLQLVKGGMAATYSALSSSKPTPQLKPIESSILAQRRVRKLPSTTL
# UniProt Q8TBX8, sequence (whole entry, unmodified, looked up): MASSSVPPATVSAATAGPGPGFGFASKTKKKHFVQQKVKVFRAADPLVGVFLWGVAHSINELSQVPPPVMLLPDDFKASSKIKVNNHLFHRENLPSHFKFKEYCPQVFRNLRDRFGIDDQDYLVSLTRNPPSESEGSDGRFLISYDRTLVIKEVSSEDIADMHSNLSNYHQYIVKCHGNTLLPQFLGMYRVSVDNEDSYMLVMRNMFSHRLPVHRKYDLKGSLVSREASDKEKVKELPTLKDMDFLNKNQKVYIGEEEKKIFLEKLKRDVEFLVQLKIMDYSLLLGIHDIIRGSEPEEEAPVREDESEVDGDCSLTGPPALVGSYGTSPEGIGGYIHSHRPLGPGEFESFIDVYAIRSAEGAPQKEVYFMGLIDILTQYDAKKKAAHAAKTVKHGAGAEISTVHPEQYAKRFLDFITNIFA
# UniProt O75417, sequence (whole entry, looked up): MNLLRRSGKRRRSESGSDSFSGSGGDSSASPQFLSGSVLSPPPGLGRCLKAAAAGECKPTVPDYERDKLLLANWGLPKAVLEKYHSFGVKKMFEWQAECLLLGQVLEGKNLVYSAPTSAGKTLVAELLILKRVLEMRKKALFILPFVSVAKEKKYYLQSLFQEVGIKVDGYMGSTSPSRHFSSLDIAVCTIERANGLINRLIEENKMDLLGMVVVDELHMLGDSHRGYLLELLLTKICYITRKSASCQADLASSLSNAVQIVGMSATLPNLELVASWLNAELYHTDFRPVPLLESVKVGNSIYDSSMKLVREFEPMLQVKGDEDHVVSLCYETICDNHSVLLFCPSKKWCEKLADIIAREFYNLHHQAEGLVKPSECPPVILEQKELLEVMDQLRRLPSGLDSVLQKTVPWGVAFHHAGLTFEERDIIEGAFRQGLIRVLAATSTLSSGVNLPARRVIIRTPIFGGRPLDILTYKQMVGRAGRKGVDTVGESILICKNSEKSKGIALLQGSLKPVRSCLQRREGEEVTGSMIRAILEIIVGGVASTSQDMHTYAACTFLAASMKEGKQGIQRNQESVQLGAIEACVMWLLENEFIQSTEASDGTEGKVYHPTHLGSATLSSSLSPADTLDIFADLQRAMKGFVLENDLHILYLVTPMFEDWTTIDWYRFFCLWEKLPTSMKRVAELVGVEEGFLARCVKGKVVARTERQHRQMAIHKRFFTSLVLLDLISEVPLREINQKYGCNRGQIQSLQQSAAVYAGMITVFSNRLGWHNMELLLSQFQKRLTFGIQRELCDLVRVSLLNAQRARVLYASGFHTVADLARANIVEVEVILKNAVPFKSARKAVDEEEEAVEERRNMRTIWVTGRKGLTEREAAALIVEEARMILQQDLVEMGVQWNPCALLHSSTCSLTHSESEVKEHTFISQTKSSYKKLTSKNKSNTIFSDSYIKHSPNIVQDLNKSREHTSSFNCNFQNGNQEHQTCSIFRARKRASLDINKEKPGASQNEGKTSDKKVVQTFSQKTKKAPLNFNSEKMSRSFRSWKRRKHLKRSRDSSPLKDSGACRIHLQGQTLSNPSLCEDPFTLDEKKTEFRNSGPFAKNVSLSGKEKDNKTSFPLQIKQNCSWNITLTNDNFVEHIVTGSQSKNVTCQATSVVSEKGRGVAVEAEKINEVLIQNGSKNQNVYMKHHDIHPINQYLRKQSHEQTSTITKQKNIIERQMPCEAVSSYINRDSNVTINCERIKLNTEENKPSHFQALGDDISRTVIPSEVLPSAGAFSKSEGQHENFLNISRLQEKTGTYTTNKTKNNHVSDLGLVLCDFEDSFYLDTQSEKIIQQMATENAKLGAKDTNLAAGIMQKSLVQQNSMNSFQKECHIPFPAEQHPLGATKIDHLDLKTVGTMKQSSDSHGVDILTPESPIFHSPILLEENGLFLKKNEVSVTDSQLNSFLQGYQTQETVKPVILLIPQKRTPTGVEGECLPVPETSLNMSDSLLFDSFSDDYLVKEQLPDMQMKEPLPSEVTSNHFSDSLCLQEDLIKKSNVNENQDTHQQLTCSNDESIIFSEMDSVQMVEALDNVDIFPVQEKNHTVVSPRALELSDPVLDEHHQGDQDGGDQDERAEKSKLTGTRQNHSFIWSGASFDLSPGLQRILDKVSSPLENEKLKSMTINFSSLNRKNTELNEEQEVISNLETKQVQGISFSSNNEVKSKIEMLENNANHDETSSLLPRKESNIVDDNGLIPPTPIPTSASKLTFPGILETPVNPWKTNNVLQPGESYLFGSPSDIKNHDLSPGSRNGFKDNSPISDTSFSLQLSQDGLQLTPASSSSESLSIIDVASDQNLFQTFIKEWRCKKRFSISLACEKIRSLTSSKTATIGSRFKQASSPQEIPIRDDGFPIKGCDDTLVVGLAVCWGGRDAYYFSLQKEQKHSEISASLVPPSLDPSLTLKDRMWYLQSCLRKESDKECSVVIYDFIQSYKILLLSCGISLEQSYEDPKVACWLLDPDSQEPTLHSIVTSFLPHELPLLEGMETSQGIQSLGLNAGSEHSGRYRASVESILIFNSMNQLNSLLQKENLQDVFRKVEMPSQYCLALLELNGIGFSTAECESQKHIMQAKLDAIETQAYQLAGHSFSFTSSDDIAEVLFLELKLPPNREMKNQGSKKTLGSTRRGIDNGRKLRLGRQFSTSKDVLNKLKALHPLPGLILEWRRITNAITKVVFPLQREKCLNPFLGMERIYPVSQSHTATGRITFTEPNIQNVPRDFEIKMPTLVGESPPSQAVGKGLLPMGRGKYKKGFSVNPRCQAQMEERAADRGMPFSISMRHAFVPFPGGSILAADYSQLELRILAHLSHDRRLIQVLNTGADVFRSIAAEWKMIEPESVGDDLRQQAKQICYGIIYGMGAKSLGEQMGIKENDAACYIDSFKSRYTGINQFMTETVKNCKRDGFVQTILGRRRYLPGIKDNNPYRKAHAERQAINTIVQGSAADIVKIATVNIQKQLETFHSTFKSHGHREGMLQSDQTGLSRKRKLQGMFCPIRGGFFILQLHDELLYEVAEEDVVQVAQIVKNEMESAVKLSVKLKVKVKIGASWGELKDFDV
# UniProt P14778, sequence (whole entry, looked up): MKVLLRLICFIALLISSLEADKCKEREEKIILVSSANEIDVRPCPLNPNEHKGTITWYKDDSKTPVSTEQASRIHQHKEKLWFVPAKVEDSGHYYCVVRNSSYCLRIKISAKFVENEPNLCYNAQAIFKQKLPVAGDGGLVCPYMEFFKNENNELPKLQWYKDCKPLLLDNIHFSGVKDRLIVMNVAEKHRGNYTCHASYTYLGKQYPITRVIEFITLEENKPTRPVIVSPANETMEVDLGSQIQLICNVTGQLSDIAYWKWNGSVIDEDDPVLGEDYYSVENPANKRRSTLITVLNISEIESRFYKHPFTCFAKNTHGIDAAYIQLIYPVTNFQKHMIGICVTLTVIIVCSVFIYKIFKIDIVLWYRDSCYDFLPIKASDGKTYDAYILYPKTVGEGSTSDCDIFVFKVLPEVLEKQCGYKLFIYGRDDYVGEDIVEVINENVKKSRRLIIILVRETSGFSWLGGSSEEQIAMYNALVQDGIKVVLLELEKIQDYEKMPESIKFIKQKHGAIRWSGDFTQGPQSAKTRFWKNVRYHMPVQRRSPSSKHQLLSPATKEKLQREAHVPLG
SMILES,target,assay,system,setting,scale,remaining activity
N#Cc1cnc2sc(C(=O)O)cc2c1N1CCc2[nH]nc(C(=O)N[C@@H](CC(=O)NCCOCCN3CCOCC3)c3cccc(Br)c3)c2C1,"IL1R1 (Homo sapiens, UniProt P14778)","SEAP reporter gene, antagonist",HEK-Blue IL-36R cells,"0.41 µM, 6 h, together with: IL-1β 5 ng/mL",baseline: untreated,110%
N=C(NC1CCCC1)c1ccc(-c2ccc(-c3ccc(C(=N)NC4CCCC4)cc3)o2)cc1,PRMT5,"enzyme activity, inhibitor, radiometric",,20 µM,,44.3%
COC(=O)[C@@]1(C)C=C(C(=O)Nc2cccc(C(=O)Nc3ccc(Nc4nccc(-c5cccnc5)n4)c(C)c3)c2)C(=O)CC1,"Mitogen-activated protein kinase 8, phosphorylated (MAPK8, Homo sapiens, UniProt P45983)","enzyme activity after dialysis, inhibitor",,"10 µM, 1 days, unit not given",baseline: no inhibitor,0.0928
O=c1c(-c2ccc(Cl)c(CN3CCOCC3)c2)coc2cc(O)ccc12,"Rps6ka1 (Rattus norvegicus, UniProt Q63531)","enzyme activity, inhibitor",,1 µM,,94%
Nc1ncc(-c2cc(-c3cnn(CC(F)(F)F)c3)ncc2F)nc1C(=O)NC1CNCC(F)C1 (stereo not shown),"TSSK6 (Homo sapiens, UniProt Q9BXA6)",enzyme activity,,1 µM,baseline: DMSO control,112%
COc1cc(Nc2nc(C)cc(-c3cnn4nc(OC)ccc34)n2)cc(C(F)(F)F)c1,"PIP4K2C (Homo sapiens, UniProt Q8TBX8)",inhibitor,,"1 µM, PIP5K2C",baseline: control,100%
N=C(N)c1ccc(-c2ccc(-c3ccc(C(N)=O)cc3)o2)cc1,PRMT5,"enzyme activity, inhibitor, radiometric",,20 µM,,81.6%
COC(=O)c1cc2cc3c(cc2oc1=O)N(CC(=O)NC(Cc1cccc(Cl)c1)C(=O)NCC=CS(=O)(=O)c1ccccc1)CCC3 (stereo not shown),"Cathepsin B (CTSB, Homo sapiens, UniProt P07858)",inhibitor,,"5 µM, 60 min, together with: Z-Arg-Arg-pNA",baseline: uninhibited control,13%
CC(C)[C@@H]1NC(=O)[C@H](Cc2ccccc2)NC(=O)CSC[C@@H](C(N)=O)NC(=O)[C@H](CCC(=O)O)NC(=O)[C@H](CO)NC(=O)[C@H](Cc2c[nH]c3cccc(Cl)c23)NC(=O)[C@H](C2CCCCC2)NC(=O)[C@H](C(C)C)NC(=O)[C@H](Cc2ccc(O)cc2)NC(=O)[C@H](CC(=O)O)NC(=O)[C@H](Cc2c[nH]c3ccccc23)NC(=O)[C@H](Cc2ccc(N)nc2)NC(=O)[C@H](Cc2c[nH]c3ccc(Cl)cc23)NC(=O)[C@H](CCC(=O)O)NC1=O,"Interleukin-1 receptor-like 2 (IL1RL2, Homo sapiens, UniProt Q9HB29)","reporter gene (SEAP), inhibitor, HEK-Blue IL-36R reporter",HEK-Blue IL-36R cells,"0.0017 µM, 6 h, together with: IL-36γ 0.01 ng/mL",,108%
COc1ccc(-c2ccc(-c3ccc(C(=N)N)nc3)o2)cc1,PRMT5,"enzyme activity, inhibitor, radiometric",,20 µM,,66%
O=C=[N][Ru-4]123([n]4c5ccc(O)cc5c5c6c(c7cc(F)c[n+]1c7c54)C(=O)NC6=O)[S+]1CC[S+]2CC[S+]3CC1 (stereo not shown),"RET (Homo sapiens, UniProt P07949)",enzyme activity,,"100 nM, human enzyme, together with: 10 µM ATP",baseline: untreated,45%
N=C(N)c1ccc(-c2ccc(-c3ccc(C(=N)N)o3)o2)o1,PRMT5,"enzyme activity, inhibitor, radiometric",,20 µM,,108%
COc1ccccc1-c1ccncc1C(=O)Nc1nnc(OCc2ccc(Cl)cc2)s1,"DNA polymerase theta, helicase domain (POLQ, Homo sapiens, UniProt O75417)","ATPase activity, ADP-Glo",,"0.06 µM, together with: ATP 400 µM",,46%
